Published values collected from several papers.
Lines come from different studies, so protocols differ. ± marks the error that the study gave.
Cell line: RAW264.7

SMILES | assay | setting | measurement | result
CC(=O)O[C@@H]1CC[C@@]2(C)C(CC[C@]3(C)C2C(=O)C=C2C4[C@@H](C)[C@H](C)CC[C@]4(C)CC[C@]23C)[C@@]1(C)c1nnc(SCC(=O)OC2CC(C)CCC2C(C)C)o1 (some centres unmarked) | cell growth or viability, MTT | 25 µM, 24 h | viability | 99%
COc1ccc(-c2coc3c(CC=C(C)C)c(O)c(CC=C(C)C)c(O)c3c2=O)cc1O | cell growth or viability, MTT | 50 µg/mL, 24 h | viability | 5.01%
O=C([O-])CN1CCN(CC(=O)[O-])CCN(C(CCC(=O)NC(Cc2c[nH]c3ccc(O)cc23)C(=O)NCCc2c[nH]c3ccc(O)cc23)C(=O)O)CCN(CC(=O)[O-])CC1.[Gd+3] (centres unmarked) | MTT | up to 5 mM, 16 h, 37 °C | cytotoxicity | not toxic
CC(=O)Oc1ccc(Cn2cc(C)c(=O)[nH]c2=O)cc1C1OC(c2cccc(Cl)c2)=NN1C(C)=O (centres unmarked) | cell growth or viability, resazurin |  | CC50 | > 100 µM
CC(C)=CCc1cc(-c2coc3cc(O)c(CC=C(C)C)c(O)c3c2=O)ccc1O | cell growth or viability, MTT | 25 µg/mL, 24 h | viability | 159%
CC(=O)Oc1ccc(Cn2ccc(=O)[nH]c2=O)cc1C1OC(c2ccc(Cl)cc2)=NN1C(C)=O (centres unmarked) | cell growth or viability, resazurin |  | CC50 | > 100 µM
CC(C)=CCc1c(O)c(CC=C(C)C)c2occ(-c3ccc(O)c(O)c3)c(=O)c2c1O | cell growth or viability, MTT | 100 µg/mL, 24 h | viability | 5.66%
CC(=O)O[C@@H]1CC[C@@]2(C)C(CC[C@]3(C)C2C(=O)C=C2C4[C@@H](C)[C@H](C)CC[C@]4(C)CC[C@]23C)[C@@]1(C)C(=O)OCc1cn(CC(=O)Oc2cc(C)ccc2C(C)C)nn1 (some centres unmarked) | cell growth or viability, MTT | 25 µM, 24 h | viability | 100%
O=c1c2ccccc2oc2nc(N3CCCCC3)sc12 | cell growth or viability, MTT | 48 h | CC50 | 51.4 µM
O=C(CCc1ccc(O)c(O)c1)NCCc1ccccc1 | cytotoxicity | 24 h | IC50 | 35.5 ± 4.07 µM
CC(=O)Oc1ccc(Cn2cc(C)c(=O)[nH]c2=O)cc1C1OC(c2ccc(Cl)cc2)=NN1C(C)=O (centres unmarked) | cell growth or viability, resazurin |  | CC50 | > 100 µM
COc1ccc(CCNC(=O)/C=C/c2ccc(O)c(O)c2)cc1OC | cytotoxicity | 24 h | IC50 | > 100 µM
O=c1c2cc(Cl)ccc2oc2nc(N3CCCCC3)sc12 | cell growth or viability, MTT | 48 h | CC50 | > 200 µM
CC(=O)O[C@@H]1CC[C@@]2(C)C(CC[C@]3(C)C2C(=O)C=C2C4[C@@H](C)[C@H](C)CC[C@]4(C)CC[C@]23C)[C@@]1(C)C(=O)OCc1cn(-c2cc(=O)oc3ccccc23)nn1 (some centres unmarked) | cell growth or viability, MTT | 25 µM, 24 h | viability | 103%
CC#CCC#CCCCC(OC(C)=O)C(=O)NCCCOc1ccc2c(-c3ccccc3C(=O)OCC)c3ccc(=O)cc-3oc2c1 (centres unmarked) |  | 5 µM, 37 °C, 10% FBS DMEM, no competitor | time to saturation of labelling | 3.75 min
COc1cc2c(cc1O)[C@]1(O)C(=O)c3c(O)cc4c(c3O[C@@H]1CO2)C=CC(C)(C)O4 | cell growth or viability, MTT | 100 µg/mL, 24 h | viability | 5.53%
O=C(Nc1nc2ccccc2s1)C1CCN(S(=O)(=O)c2ccc(F)c(Cl)c2)CC1 | MTT | up to 30 µM, 24 h | cytotoxicity | not toxic
COc1ccc(CCNC(=O)CCc2ccc(O)c(O)c2)cc1OC | cytotoxicity | 24 h | IC50 | 52 ± 4.85 µM
CC(C)=CCc1c2c(c(O)c3c(=O)c(-c4ccc(O)cc4)coc13)CC(C(C)(C)O)O2 (centres unmarked) | cell growth or viability, MTT | 25 µg/mL, 24 h | viability | 5.34%
CC(=O)Oc1ccc(Cn2cc(F)c(=O)[nH]c2=O)cc1C1OC(c2cccc(Cl)c2)=NN1C(C)=O (centres unmarked) | cell growth or viability, resazurin |  | CC50 | > 100 µM
O=c1c2ccccc2oc2nc(N3CCC(N4CCCCC4)CC3)sc12 | cell growth or viability, MTT | 48 h | CC50 | 108 µM
CC(=O)Oc1ccc(Cn2cc(C)c(=O)[nH]c2=O)cc1C1OC(c2ccccc2)=NN1C(C)=O (centres unmarked) | cell growth or viability, resazurin |  | CC50 | > 100 µM
CC(=O)O[C@@H]1CC[C@@]2(C)C(CC[C@]3(C)C2C(=O)C=C2C4[C@@H](C)[C@H](C)CC[C@]4(C)CC[C@]23C)[C@@]1(C)C(=O)OCC(=O)Oc1cc(C)ccc1C(C)C (some centres unmarked) | cell growth or viability, MTT | 25 µM, 24 h | viability | 88%

Excerpt of the above:
SMILES | assay | setting | measurement | result
CC(=O)O[C@@H]1CC[C@@]2(C)C(CC[C@]3(C)C2C(=O)C=C2C4[C@@H](C)[C@H](C)CC[C@]4(C)CC[C@]23C)[C@@]1(C)C(=O)OCc1cn(-c2cc(=O)oc3ccccc23)nn1 (some centres unmarked) | cell growth or viability, MTT | 25 µM, 24 h | viability | 103%
CC#CCC#CCCCC(OC(C)=O)C(=O)NCCCOc1ccc2c(-c3ccccc3C(=O)OCC)c3ccc(=O)cc-3oc2c1 (centres unmarked) |  | 5 µM, 37 °C, 10% FBS DMEM, no competitor | time to saturation of labelling | 3.75 min
